Measurements from different studies.
Numbered parts are unrelated; each lists some results of a single study.

Sample 1
Target: Microphthalmia-associated transcription factor, full length (MITF, Homo sapiens, UniProt O75030-10, residues 1-413)
Method: protein-binding microarray
Form: double-stranded DNA, one strand shown
Sample: in vitro
Tested at: not given
Setting: k-mer, scored over probes, only values ≥0.25
Reading: higher = stronger binding
Construct (chain): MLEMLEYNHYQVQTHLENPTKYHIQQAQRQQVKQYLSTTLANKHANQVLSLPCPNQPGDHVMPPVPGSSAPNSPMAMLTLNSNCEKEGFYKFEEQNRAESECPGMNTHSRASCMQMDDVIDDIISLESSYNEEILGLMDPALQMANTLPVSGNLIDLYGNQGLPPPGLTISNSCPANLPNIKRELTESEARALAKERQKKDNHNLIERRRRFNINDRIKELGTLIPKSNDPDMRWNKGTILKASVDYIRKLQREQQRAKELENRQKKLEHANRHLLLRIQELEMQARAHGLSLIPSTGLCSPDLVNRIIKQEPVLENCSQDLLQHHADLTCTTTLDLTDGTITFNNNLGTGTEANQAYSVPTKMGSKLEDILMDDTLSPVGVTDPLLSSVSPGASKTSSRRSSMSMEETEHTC
| Sequence | E-score |
| --- | --- |
| ACTCGTG | 0.459 |
| AAATCAC | 0.309 |
| ATGATGA | 0.292 |
| ATGACTG | 0.32 |
| ATCACGG | 0.386 |
| TCACACA | 0.254 |
| CGACACG | 0.26 |
| GAGTCAC | 0.311 |
| AGCACGA | 0.285 |
| ATGACTC | 0.285 |
| CCCCACG | 0.297 |
| ACGTGCA | 0.289 |
| CTCATGA | 0.39 |
| CACATCA | 0.264 |
| CATGCAC | 0.339 |
| ACGAGAC | 0.255 |
| ACATCAC | 0.32 |
| CCCCACA | 0.258 |
| CATGTCA | 0.336 |
| GTGGGGA | 0.305 |
| ACACGCG | 0.397 |
| CGTCACA | 0.289 |
| GCGTGAC | 0.47 |
| ACGCGTG | 0.387 |
| AAGTCAT | 0.309 |

Sample 2
Target: Interferon regulatory factor 5, full length, phosphomimetic (IRF5, Homo sapiens, UniProt Q13568-2, residues 1-514, K96S/S451D/S453D/S456D/S462D)
Method: protein-binding microarray
Form: double-stranded DNA, one strand shown
Sample: in vitro
Tested at: 250 nM
Setting: 60-bp whole probe
Together with: salmon DNA 0.4 mg/ml
Reference: random background probes
Reading: higher = stronger binding
Constant ends, left off below: GCCTAGCAC … GTCTTGATTCGCTTGACGCTGCTG
| Sequence | log fluorescence [z-score] |
| --- | --- |
| TTAGGTGTCCTTCTCCTTTAGTGCTAG | 0.071 |
| TCATTTTTTCTAATTGAACTGTGCTAG | 1.22 |
| TCACTCGTCTCTATCAAACTGTGCTAG | 0.569 |
| TTAGGTCTCGACACTGGGTTAGTGCTA | -0.423 |
| TCAACTTTGCTCTGTGCAACTGTGCTA | 0.344 |
| GACGATCGCAGTCTCGAGACGTGCTAG | -0.219 |
| GACGATTTCAGTATCGAGTCGTGCTAG | 4.61 |
| TCATGTCTGTTTCCTCTTACTGTGCTA | 1.1 |
| CCCTTTCTCAACCTCCAGAGGTGCTAG | 0.629 |
| GGGCCCATCATTCCGACCCTGTGCTAG | -0.376 |
| TTAGGTCTCCTTATCCCTTAGTGCTAG | -0.123 |
| TTAGGTTCCGGTTTCGGTTGGTGCTAG | 9.35 |
| TAAGGTATCGGGTATCGGTTAGTGCTA | 5.82 |
| TCAGATCTCAGTTTCGATTAGTGCTAG | 9.4 |
| TCAAATCTCAGCCTCCGACTGTGCTAG | -0.0124 |
| TCAATTATTGCTTCCTCACTGTGCTAG | 0.492 |
| GACGAACTGAGTCTCCAGACGTGCTAG | -0.311 |
| TTAGGTATTGGTTTCGGTTAGTGCTAG | 9.94 |
| GACGGACAGGGTATCGGGACGTGCTAG | -0.0761 |
| CAAACACTGGTTTTTACTTTGTGCTAG | 0.451 |
| TTAGGTATCGACTTTCGGTTGGTGCTA | 9.52 |
| GACGGTTACGGTTCCGGGACGTGCTAG | 0.352 |
| GACGGTTTCGGTCGCGGGACGTGCTAG | 9.13 |
| CCCTGTCTGTCCAGAAACCCGTGCTAG | -0.227 |
| TCATGTTTCCATTTTCTACTGTGCTAG | 2.01 |

Sample 3
Target: RING finger protein unkempt homolog, zinc fingers 1-6, GST-SBP tag (UNK, Homo sapiens, UniProt Q9C0B0, residues 30-357)
UniProt Q9C0B0, sequence (30-357, looked up): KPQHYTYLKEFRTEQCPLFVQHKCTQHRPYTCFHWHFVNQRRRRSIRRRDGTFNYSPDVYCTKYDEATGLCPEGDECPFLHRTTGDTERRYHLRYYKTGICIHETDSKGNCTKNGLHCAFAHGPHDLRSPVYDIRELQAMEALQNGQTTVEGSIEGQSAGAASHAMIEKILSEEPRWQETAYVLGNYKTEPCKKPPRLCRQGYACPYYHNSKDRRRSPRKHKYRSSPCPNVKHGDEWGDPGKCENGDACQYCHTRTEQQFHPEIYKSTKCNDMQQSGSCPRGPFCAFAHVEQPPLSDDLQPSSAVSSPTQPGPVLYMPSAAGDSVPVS
Method: RNA Bind-n-Seq
Form: RNA
Sample: in vitro
Tested at: not given
Setting: RNA with constant flanks, human and mouse sites, ends assumed
Reference: input RNA pool
Reading: higher = stronger binding
Constant ends, left off below: GGGAGUUCUACAGUCCGACGAUC … CAACAGAGGAUUGAGCAUCA
| Sequence | bound/input enrichment |
| --- | --- |
| GUCCAGCGCCUGAAUGAACUUGAGGCAAUGACCAGAGUGAGAUUGGAUUUCUUGGAUCAACUAGCAAAAUUUUGGGAACUUCAAGGAUCUACUCUGAAGAUCCCUGUGGUAGAGAGAAAA | 1.18 ratio |
| GAAUUUGCCCAAGAUAAAUAUAUUAAAAAGAAGAAAAAAAAAUAUGAAGCCAUCAUUACUGUUGUGAAGCCAUCCACCCGUAUUCUUUCAAUUAUGUAUUAUGCAAGAGAACCUGGAAAA | 2.22 ratio |
| AUAAGCCCUGAUUCUGGUUUUUAACAAGCUGUUUGUUCAUCUAUAUUUAGUUUAAAAUAGGUAGUAUUAUCUUUCUGUACAUAGUGUACAUUACAACUAAAAGUGAUGGAAAAAUACUGU | 5.77 ratio |
| GCAUUUAUCUUUUUUCCUAGUUUUUCUAAUACUAAUGUUAUUUCUUAAAAUUCAGUGAGAUAUAGGAUAAAAUAAUGCUUUGAGAAGAAUGUUUAAUAGAAAAUUAAAAUAACUUUUUCU | 2.53 ratio |
| AACCACAACGACUGGAUUAAGCAGUAUGAAACACUAGCCGAAAUGGUAGUUCCAAGGUCUAGCAAUGUUCUUUCAGAGGACCAAGACAGUUACCUGUGUAAUGUCACCUUGUUUAGGAAG | 0.388 ratio |
| AUGAACUUUCAGGCAACACUGUUAUUAAAUGACCCAGACAGACCUGUCCUUAUAUAAUUGUAGCUUUUCAGCACAAGGAUCCUAAAAGAUGGCAGCACCCACUUCUAAAAUCAUACUUGA | 0.134 ratio |
| CUCCAGGACUCAGUGAUGGAGGCCAGCAGAACAACCAUAGAAGAAUCAGCCAUGCCCCCACCACCCCCUCAAGGAGUUAAGCGGAAAGCCGGGCAAAUAGACCCAGAGCCUUCGAUACCU | 1.3 ratio |
| AAGCGGGGAGAAGAGCCGGCUGAGCCCGCUGAGCCGGAGCCCACAGAAGCAUGGAAGGUGGAAAAAACCCACACCGAGGUCACAGUACCUACCUCAAAUGGUGACCAAACGCAGAAAAAG | 0.0859 ratio |
| CAAGUACAUCUUGGUGUCAGUGAUGAUCUUGGGUUGCUUGCUCACAUGACUGCGAGUGUAGAGUUAACGUGCACAUCAAGCAUAAUGGAAGAGAAAGACUUCAGAAUUCAUACGACGUCA | 0.136 ratio |
| ACCCGUUACAUUCAGGGAACAGGUGGUGAUGAGGUUGAUGAUUCUAUGGGUGUAAAUGACAUAGAUAUAAGCCUGUACGUCCCAAGAGAUGUAGAAGAGACAGGUAUCACUGUGGCCAGU | 0.177 ratio |
| UUAUGUGCCUGUAUUUUUUUAAAAUGGUACACCAGAAAAGGACUGGCAGUCUACUUCUACCAUAGUUAAACUUCACCCUCUUUAAUUUCACAACAUAUUCUUUGGAAGCAGGAAGAAAUG | 1.37 ratio |

Single results of other studies
Organism: Saccharomyces cerevisiae
Read-out: binding
Method: competitive growth deep sequencing
Form: peptide
Strain: cyclin E1-Cln2 fusion strain
Tested at: concentration not given
Reading: direction not given
| Molecule | setting | growth enrichment score |
| --- | --- | --- |
| MDASRQLMLNEEQ | Cln2 score subtracted | 0.0878 |
| GSPAKKLFTSTGL | peptide library 1 | 0.0361 |

Some of these lines once more (sample 1):
| Sequence | E-score |
| --- | --- |
| CTCATGA | 0.39 |
| CACATCA | 0.264 |
| CATGCAC | 0.339 |
| ACGAGAC | 0.255 |
| ACATCAC | 0.32 |
| CCCCACA | 0.258 |
| CATGTCA | 0.336 |
| GTGGGGA | 0.305 |
| ACACGCG | 0.397 |
| CGTCACA | 0.289 |
